Measured values gathered from unrelated publications.
Compare with care: the assays were run in different laboratories. Numbers after ± are the reported error. Converted amounts (≈) assume the structure as drawn.

Molecule = Cc1ccccc1-c1nc(CN2CCC(C(=O)NCCCN3CC(C)CC(C)C3)CC2)c(C)o1 (stereo not shown); tested on = Hepatitis C virus; test = HCV infection, Gaussia luciferase reporter; test system = Huh7.5.1 reporter cells; how to read = reference: 10 µM cyclosporin A, DMSO, negative means inhibition; endpoint = maximal response; result = -73%
Molecule = CN[C@@](C)(C[18F])C(=O)O; tested on = MDA-MB-468 tumour model; test system = host not given, heart; setting = 30 min, tumour-bearing; endpoint = tracer uptake; result = 3.6 %ID/g
Molecule = CCCCCOc1c(OC)cc(NC(C)CCCN)c2nc(C(C)(C)C)cc(C)c12 (stereo not shown); tested on = Staphylococcus aureus; test = microbial killing; test system = ATCC33591 MRSA; setting = drug-resistant strain; endpoint = MBC; result = > 20 µg/mL
Molecule = CC[C@H](C)[C@H](NC(=O)[C@H](CCCCN)NC(=O)[C@H](CCC(=O)O)NC(=O)[C@H](CCCCN)NC(=O)[C@H](CO)NC(=O)[C@H](CCCCN)NC(=O)[C@H](CCCNC(=N)N)NC(=O)[C@H](Cc1ccccc1)NC(=O)[C@H](Cc1ccccc1)NC(=O)[C@H](CC(=O)O)NC(=O)CNC(=O)[C@H](CC(C)C)NC(=O)[C@@H](N)CC(C)C)C(=O)NCC(=O)N[C@@H](CCCCN)C(=O)N[C@@H](CCC(=O)O)C(=O)N[C@@H](Cc1ccccc1)C(=O)N[C@@H](CCCCN)C(=O)N[C@@H](CCCNC(=N)N)C(=O)N[C@H](C(=O)N[C@H](C(=O)N[C@@H](CCC(N)=O)C(=O)N[C@@H](CCCNC(=N)N)C(=O)N[C@H](C(=O)N[C@@H](CCCCN)C(=O)N[C@@H](CC(=O)O)C(=O)N[C@@H](Cc1ccccc1)C(=O)N[C@@H](CC(C)C)C(=O)N[C@@H](CCCNC(=N)N)C(=O)N[C@@H](CC(N)=O)C(=O)N[C@@H](CC(C)C)C(=O)N[C@H](C(=O)N1CCC[C@H]1C(=O)N[C@@H](CCCNC(=N)N)C(=O)N[C@H](C(=O)N[C@@H](CCC(=O)O)C(=O)N[C@@H](CO)C(=O)O)[C@@H](C)O)C(C)C)[C@@H](C)CC)C(C)C)[C@@H](C)CC; tested on = hepatitis B virus genotype C; test = NanoLuc reporter virus; test system = HepG2-NTCP; setting = 10 µM, 7 d, producer cells treated; how to read = reference: control treated; endpoint = infectivity; result = 58.8%
Molecule = CP(=O)(O)CCC(N)C(=O)O (stereo not shown); tested on = Chenopodium album; setting = 500 g/ha, 13 days, CHEAL, post-emergence spray; how to read = reference: untreated (0%), complete kill (100%); endpoint = herbicidal activity; result = 100%
Molecule = CCCCOc1c(OC)cc(NC(C)CCCNC(=O)C(N)CCCCN)c2nc(C(C)(C)C)ccc12 (stereo not shown); tested on = Staphylococcus aureus; test = bacterial growth; test system = MRSA ATCC 33591; endpoint = IC50; result = > 20 µg/mL
Molecule = LSTFFRLFNRSFTQGRRRRSVQWCA; tested on = Streptococcus gordonii; test = OD600; test system = peptide, ATCC 10558, 4 h single-species biofilm; setting = 128 µg/ml, 5 min exposure, OD600 read over 5 h; endpoint = biofilm growth; result = no effect
Molecule = CC(=NNC(=O)CN1c2c(-c3ccccc3)n[nH]c2-c2ccccc2S1(=O)=O)c1cc(C)cs1; tested on = HIV-1; test = viral replication; test system = PBMC; endpoint = EC90; result = > 100 µM
Molecule = CC[C@H](C)[C@H](N)C(=O)N[C@@H](CC(C)C)C(=O)N1CCC[C@H]1C(=O)N[C@@H](Cc1c[nH]c2ccccc12)C(=O)N[C@@H](CCCCN)C(=O)N[C@@H](Cc1c[nH]c2ccccc12)C(=O)N1CCC[C@H]1C(=O)N[C@@H](Cc1c[nH]c2ccccc12)C(=O)N[C@@H](Cc1c[nH]c2ccccc12)C(=O)N1CCC[C@H]1C(=O)N[C@@H](Cc1c[nH]c2ccccc12)C(=O)N[C@@H](CCCNC(=N)N)C(=O)N[C@@H](CCCNC(=N)N)C(N)=O; tested on = Pseudomonas aeruginosa; test = broth microdilution; setting = 18 h, 10 clinical isolates; endpoint = MIC range; result = 4 to 64 µg/mL (≈ 2.1 to 33.6 µM)
Molecule = TRTRVSRLY; tested on = rhesus rotavirus; test system = peptide, mouse cholangiocytes; setting = 1 mM, cell pretreatment; how to read = reference: serum-free medium; endpoint = viral yield; result = decreased
Molecule = CC[C@H](C)CCCCC(=O)N[C@@H](CCN)C(=O)N[C@H](C(=O)N[C@@H](CCN)C(=O)N[C@H]1CCNC(=O)[C@H]([C@@H](C)O)NC(=O)[C@H](CCN)NC(=O)[C@H](CCN)NC(=O)[C@H](CC(C)C)NC(=O)[C@@H](Cc2ccccc2)NC(=O)[C@H](CCN)NC1=O)[C@@H](C)O; tested on = Klebsiella pneumoniae; test system = carbapenem-resistant, human; setting = inhaled plus intravenous, 25 mg inhaled plus 50 mg intravenous every 12 h, 5 d, with: amikacin; endpoint = microbiological response at end of treatment; result = negative
Molecule = COc1ccc(C=NNC(=O)CN2c3c(n[nH]c3-c3cccc(Cl)c3)-c3ccccc3S2(=O)=O)c(OC)c1OC; tested on = HIV-1; test = viral replication; test system = PBMC; endpoint = EC90; result = 23.8 µM
Molecule = guanidine hydrochloride; tested on = Coxsackievirus B3; test = CPE inhibition; test system = HeLa, Nancy; setting = 48 h; endpoint = IC50; result = 423 µM
Molecule = CCCCCCCOc1c(OC)cc(NC(C)CCCN)c2nc(C(C)(C)C)cc(C)c12 (stereo not shown); tested on = Staphylococcus aureus; test = microbial killing; test system = ATCC33591 MRSA; setting = drug-resistant strain; endpoint = MBC; result = 5 µg/mL (≈ 11.3 µM)
Molecule = TDVDHVFLRF-OH (C-acid); tested on = Drosophila melanogaster; test = heart rate; test system = peptide, wandering third instar larval heart; setting = 40 nL injected, 1 µM, 10 min; how to read = reference: DMS; endpoint = inhibition; result = 27%
Molecule = CC(C)C[C@H](NC(=O)[C@H](C)NC(=O)[C@H](CC(C)C)NC(=O)[C@H](CCCCN)NC(=O)[C@H](CCCCN)NC(=O)[C@H](Cc1c[nH]c2ccccc12)NC(=O)[C@H](CC(C)C)NC(=O)[C@H](CC(C)C)NC(=O)[C@H](C)NC(=O)[C@H](CC(C)C)NC(=O)[C@H](CCCCN)NC(=O)[C@H](CCCCN)NC(=O)[C@H](CC(C)C)NC(=O)[C@H](C)NC(=O)[C@H](CC(C)C)NC(=O)[C@H](C)NC(=O)[C@H](CC(C)C)NC(=O)[C@H](CCCCN)NC(=O)[C@@H](N)CCCCN)C(=O)N[C@@H](C)C(=O)N[C@@H](CC(C)C)C(=O)N[C@@H](CCCCN)C(=O)N[C@@H](CCCCN)C(=O)N[C@@H](C)C(N)=O; tested on = Pseudomonas aeruginosa; test = broth microdilution; test system = PAO1; setting = overnight, 37 °C; endpoint = MIC50; result = 4.2 ± 0.92 µM (≈ 11.2 µg/mL)

For quick reference, copied from above:
Molecule = guanidine hydrochloride; tested on = Coxsackievirus B3; test = CPE inhibition; test system = HeLa, Nancy; setting = 48 h; endpoint = IC50; result = 423 µM
Molecule = CCCCCCCOc1c(OC)cc(NC(C)CCCN)c2nc(C(C)(C)C)cc(C)c12 (stereo not shown); tested on = Staphylococcus aureus; test = microbial killing; test system = ATCC33591 MRSA; setting = drug-resistant strain; endpoint = MBC; result = 5 µg/mL (≈ 11.3 µM)
